Assay results from different studies.
Lines come from different studies, so protocols differ. Numbers after ± are the reported error.
YWHAG/RELA phospho-Ser45 p65 peptide: YWHAG/RELA, phospho-Ser45 p65 peptide (Homo sapiens, UniProt P61981+Q04206)
UniProt P61981, sequence (whole entry, looked up): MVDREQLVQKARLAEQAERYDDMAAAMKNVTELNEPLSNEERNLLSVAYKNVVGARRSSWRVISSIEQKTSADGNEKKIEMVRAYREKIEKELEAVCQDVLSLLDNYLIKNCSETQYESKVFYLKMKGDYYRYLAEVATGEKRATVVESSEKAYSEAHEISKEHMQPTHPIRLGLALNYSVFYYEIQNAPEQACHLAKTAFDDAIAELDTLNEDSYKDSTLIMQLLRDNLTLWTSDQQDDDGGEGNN
UniProt Q04206, sequence (whole entry, looked up): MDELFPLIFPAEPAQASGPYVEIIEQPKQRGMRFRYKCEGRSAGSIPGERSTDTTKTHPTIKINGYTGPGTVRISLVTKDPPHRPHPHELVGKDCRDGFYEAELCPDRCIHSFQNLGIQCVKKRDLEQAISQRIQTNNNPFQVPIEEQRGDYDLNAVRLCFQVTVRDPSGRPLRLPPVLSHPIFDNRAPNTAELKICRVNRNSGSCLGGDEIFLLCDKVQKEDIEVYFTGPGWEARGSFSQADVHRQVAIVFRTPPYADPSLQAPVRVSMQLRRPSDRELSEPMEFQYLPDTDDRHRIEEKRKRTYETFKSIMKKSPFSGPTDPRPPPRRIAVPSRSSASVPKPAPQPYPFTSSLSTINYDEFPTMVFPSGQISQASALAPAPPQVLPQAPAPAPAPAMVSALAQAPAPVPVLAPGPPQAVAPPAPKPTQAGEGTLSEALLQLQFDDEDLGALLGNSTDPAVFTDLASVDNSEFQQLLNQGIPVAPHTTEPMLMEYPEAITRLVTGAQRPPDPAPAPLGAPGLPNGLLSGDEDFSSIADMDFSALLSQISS
ADRA2A: Alpha-2A adrenergic receptor (ADRA2A, Homo sapiens, UniProt P08913)
UniProt P08913, sequence (whole entry, looked up): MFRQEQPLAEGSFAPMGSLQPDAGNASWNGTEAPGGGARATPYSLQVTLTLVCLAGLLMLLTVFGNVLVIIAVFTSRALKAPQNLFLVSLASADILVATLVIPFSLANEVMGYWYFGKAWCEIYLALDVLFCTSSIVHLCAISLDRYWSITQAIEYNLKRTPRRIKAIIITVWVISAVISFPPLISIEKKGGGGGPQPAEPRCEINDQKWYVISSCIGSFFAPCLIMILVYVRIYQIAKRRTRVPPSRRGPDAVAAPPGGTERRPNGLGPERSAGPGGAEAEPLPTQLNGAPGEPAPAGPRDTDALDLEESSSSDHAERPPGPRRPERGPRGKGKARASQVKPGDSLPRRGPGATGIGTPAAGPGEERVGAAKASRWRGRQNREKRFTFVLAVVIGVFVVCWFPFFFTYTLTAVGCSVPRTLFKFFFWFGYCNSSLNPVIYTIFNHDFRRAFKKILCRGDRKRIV
Nuclear receptor subfamily 2 group C member 2 ligand-binding domain: Nuclear receptor subfamily 2 group C member 2, ligand-binding domain (Homo sapiens, UniProt P49116)
UniProt P49116, sequence (whole entry, looked up): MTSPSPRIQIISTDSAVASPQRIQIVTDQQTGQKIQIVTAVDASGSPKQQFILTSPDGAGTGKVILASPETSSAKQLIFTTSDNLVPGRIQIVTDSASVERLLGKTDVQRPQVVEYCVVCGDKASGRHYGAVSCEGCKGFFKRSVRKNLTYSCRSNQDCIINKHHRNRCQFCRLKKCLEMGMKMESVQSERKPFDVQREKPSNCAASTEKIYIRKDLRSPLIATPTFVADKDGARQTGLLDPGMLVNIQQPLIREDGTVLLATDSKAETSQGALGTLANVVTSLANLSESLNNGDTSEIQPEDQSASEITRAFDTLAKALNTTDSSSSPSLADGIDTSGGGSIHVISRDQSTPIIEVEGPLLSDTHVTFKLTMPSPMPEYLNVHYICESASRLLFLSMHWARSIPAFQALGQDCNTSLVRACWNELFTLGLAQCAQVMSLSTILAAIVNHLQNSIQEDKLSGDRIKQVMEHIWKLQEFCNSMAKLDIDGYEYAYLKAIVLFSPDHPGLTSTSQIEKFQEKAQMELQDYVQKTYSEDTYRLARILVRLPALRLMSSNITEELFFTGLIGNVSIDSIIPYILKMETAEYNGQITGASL
UniProt P11086, sequence (whole entry, looked up): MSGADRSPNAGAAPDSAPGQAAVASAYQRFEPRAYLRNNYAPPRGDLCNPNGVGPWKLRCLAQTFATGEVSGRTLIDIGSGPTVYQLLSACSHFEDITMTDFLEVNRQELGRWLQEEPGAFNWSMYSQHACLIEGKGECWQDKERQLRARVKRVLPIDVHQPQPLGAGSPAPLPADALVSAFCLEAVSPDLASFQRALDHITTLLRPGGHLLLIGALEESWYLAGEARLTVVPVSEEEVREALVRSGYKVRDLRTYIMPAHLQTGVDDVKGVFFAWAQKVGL
UniProt P34995, sequence (whole entry, unmodified, looked up): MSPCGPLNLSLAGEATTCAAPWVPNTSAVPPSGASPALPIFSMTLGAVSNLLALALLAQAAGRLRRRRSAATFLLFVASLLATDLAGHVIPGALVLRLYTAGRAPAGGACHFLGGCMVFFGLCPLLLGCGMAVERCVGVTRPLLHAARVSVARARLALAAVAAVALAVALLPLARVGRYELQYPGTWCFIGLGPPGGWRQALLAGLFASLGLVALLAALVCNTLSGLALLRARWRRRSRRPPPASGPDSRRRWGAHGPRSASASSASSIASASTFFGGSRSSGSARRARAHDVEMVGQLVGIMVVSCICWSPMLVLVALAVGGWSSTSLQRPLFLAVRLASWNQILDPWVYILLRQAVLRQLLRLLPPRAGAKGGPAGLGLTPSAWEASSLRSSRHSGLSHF
UniProt P13569, sequence (whole entry, unmodified, looked up): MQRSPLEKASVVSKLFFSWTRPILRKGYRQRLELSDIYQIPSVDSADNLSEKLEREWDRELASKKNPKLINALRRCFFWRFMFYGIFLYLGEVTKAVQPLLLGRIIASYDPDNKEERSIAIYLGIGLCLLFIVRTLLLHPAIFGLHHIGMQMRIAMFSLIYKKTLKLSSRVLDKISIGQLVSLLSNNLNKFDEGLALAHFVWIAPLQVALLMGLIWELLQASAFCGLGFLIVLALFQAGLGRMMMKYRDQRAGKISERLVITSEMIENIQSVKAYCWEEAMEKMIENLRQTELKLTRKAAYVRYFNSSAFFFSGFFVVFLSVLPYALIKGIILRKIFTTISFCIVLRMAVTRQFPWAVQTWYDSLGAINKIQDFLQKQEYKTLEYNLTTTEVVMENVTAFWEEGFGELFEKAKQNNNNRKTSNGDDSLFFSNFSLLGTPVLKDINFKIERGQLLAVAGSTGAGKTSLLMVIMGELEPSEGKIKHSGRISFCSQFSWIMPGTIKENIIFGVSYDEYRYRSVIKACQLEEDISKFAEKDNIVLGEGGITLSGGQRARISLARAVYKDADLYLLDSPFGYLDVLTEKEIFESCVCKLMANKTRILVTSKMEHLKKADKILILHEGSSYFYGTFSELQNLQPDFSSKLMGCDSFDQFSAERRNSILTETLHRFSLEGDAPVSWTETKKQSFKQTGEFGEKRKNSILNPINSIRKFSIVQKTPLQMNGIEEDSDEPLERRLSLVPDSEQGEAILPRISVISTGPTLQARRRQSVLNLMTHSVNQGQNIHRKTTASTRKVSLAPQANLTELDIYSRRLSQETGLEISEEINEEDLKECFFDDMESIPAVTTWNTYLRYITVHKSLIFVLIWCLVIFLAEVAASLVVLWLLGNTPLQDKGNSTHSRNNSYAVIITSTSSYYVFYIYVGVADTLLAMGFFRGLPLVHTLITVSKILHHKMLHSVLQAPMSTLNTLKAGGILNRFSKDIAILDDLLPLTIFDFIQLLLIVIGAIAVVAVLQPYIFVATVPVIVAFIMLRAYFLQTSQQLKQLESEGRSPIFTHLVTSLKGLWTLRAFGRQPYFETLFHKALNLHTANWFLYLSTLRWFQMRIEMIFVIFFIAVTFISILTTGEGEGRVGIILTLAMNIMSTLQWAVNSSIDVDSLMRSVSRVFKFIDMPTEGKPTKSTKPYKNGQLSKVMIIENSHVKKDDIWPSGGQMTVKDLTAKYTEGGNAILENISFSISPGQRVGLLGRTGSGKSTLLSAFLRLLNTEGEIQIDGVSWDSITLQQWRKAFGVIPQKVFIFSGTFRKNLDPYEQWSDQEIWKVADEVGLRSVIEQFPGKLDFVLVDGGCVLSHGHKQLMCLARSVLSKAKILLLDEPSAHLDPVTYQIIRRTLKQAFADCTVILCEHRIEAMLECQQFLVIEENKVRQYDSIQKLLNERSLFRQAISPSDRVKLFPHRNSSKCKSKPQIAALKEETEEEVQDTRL
UniProt P53341, sequence (whole entry, looked up): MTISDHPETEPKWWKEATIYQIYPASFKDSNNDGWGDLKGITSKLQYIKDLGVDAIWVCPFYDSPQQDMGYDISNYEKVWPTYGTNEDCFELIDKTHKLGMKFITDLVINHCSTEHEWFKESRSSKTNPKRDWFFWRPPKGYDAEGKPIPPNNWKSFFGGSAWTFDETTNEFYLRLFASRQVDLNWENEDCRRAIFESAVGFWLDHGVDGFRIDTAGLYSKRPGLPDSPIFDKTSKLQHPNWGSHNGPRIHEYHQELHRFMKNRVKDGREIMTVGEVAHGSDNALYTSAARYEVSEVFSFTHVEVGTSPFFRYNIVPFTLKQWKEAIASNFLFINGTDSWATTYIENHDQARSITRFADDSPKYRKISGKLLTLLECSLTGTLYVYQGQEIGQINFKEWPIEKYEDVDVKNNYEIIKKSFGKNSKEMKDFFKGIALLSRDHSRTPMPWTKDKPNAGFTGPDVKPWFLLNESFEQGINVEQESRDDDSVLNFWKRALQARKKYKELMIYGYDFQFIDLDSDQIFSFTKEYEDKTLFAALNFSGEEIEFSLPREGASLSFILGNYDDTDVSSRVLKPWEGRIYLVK
UniProt Q16816, sequence (whole entry, looked up): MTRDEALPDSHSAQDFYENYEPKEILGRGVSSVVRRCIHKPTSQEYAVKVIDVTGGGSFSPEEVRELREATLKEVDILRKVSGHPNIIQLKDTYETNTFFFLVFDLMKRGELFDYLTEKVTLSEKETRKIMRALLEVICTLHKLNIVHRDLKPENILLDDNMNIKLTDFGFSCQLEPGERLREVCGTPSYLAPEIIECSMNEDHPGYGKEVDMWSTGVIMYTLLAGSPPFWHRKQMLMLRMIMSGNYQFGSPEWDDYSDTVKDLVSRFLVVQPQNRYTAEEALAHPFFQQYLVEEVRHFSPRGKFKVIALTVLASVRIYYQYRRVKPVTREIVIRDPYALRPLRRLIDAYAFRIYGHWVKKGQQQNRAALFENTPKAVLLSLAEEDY

SMILES | target or system | test | system | conditions | how to read | measurement | result
O=Cc1ccc(C(=O)NCC2CCOCC2)cc1 | YWHAG/RELA phospho-Ser45 p65 peptide | ternary complex formation, stabilizer, fluorescence anisotropy |  |  |  | EC50 | > 1000 µM
Cc1cc(Oc2ncccc2CN2CCN(c3ccccc3O)CC2)ccc1-c1c(C)c(=O)[nH]c(=O)n1C | ADRA2A | inhibitor, radioligand binding |  | with: [3H]rauwolscine |  | Ki | 0.0571 µM
Cc1ncsc1-c1ccc([C@H](CC(=O)N2CCN(c3ccc(C#Cc4ccc(C(=O)N5CCC(n6cc(-c7ccc8c(c7)CCN8C(=O)Cc7cccc(OC(F)(F)F)c7)c7c(N)ncnc76)CC5)cc4)cn3)CC2)NC(=O)[C@@H]2C[C@@H](O)CN2C(=O)[C@@H](NC(=O)C2(F)CC2)C(C)(C)C)cc1 | RIPK1 (Homo sapiens, UniProt Q13546) | degrader, western blot | Jurkat | 24 h |  | DC50 | 0.0026 µM
CC(C)C[C@H](NC(=O)C[C@H](O)[C@H](CC(C)C)NC(=O)[C@H](Cc1c[nH]cn1)NC(=O)CNC(=O)[C@@H](NC(=O)[C@H](C)NC(=O)[C@H](Cc1c[nH]c2ccccc12)NC(=O)[C@H](CCC(N)=O)NC(=O)[C@@H](Cc1ccccc1)NC(=O)COCCOCCNC(=O)CCC(C(=O)O)N1CCN(CC(=O)O)CCN(CC(=O)O)CCN(CC(=O)O)CC1)C(C)C)C(N)=O (stereo partly shown) [lutetium-177 labelled] |  |  | BALB/c nu/nu mice, spleen | intravenous, 100 pmol, 1 h, with: PA 300 µg |  | tissue uptake | 0.2 ± 0.07 %ID/g
Cc1ccc(C(=O)Oc2cc(C=O)ccc2[N+](=O)[O-])cc1F | YWHAG/RELA phospho-Ser45 p65 peptide | ternary complex formation, stabilizer, fluorescence anisotropy |  |  |  | EC50 | > 1000 µM
CCc1cc(C(=O)NC)c2nccc(N3CCc4c(cc(Cn5ccnc5)cc4-c4cn(C)nc4C(F)(F)F)C3=O)c2c1 |  |  | Sprague Dawley rat | oral, 100 mg/kg once daily, 7 days |  | lung weight | 1.23 ± 0.071 g
O=Cc1ccc([N+](=O)[O-])c(OC(=O)c2cccc(Cl)c2)c1 | YWHAG/RELA phospho-Ser45 p65 peptide | ternary complex formation, stabilizer, fluorescence anisotropy |  |  |  | EC50 | > 1000 µM
COC(=O)[C@H]1[C@H]2C[C@@H]3c4[nH]c5cc(OC)ccc5c4CCN3C[C@H]2C[C@@H](OC(=O)c2cc(OC)c(OC)c(OC)c2)[C@@H]1OC | Nuclear receptor subfamily 2 group C member 2 ligand-binding domain | SPR imaging |  |  |  | Kd | 8.99 nM
O=Cc1ccc([N+](=O)[O-])c(OC(=O)c2ccc(Cl)cc2)c1 | YWHAG/RELA phospho-Ser45 p65 peptide | ternary complex formation, stabilizer, fluorescence anisotropy |  |  |  | EC50 | > 1000 µM
Cc1ccccc1C(=O)Nc1ccc(C(=O)N2CCCC(O)c3cc(Cl)ccc32)c(C)c1 (stereo not shown) | Nuclear receptor subfamily 2 group C member 2 ligand-binding domain | SPR imaging |  |  |  | Kd | 0.0538 nM
N[C@@H](CCC(=O)N[C@@H](CS)C(=O)NCC(=O)O)C(=O)O | Cu(I) | binding, bicinchoninic acid competition |  | 4000 µM, with: bicinchoninic acid 40 µM |  | Kd | 0.0308 nM
O=Cc1ccc([N+](=O)[O-])c(N2CCCC2c2ccccc2)c1 (stereo not shown) | YWHAG/RELA phospho-Ser45 p65 peptide | ternary complex formation, stabilizer, fluorescence anisotropy |  |  |  | EC50 | > 1000 µM
CN1CC2c3ccccc3Oc3ccc(Cl)cc3C2C1 (stereo not shown) | HTR1A (Homo sapiens, UniProt P08908, A222V) | agonist |  |  |  | EC50 | 0.0092 µM
Nc1nc(O)c2ncn(COC(CO)CO)c2n1 | Nuclear receptor subfamily 2 group C member 2 ligand-binding domain | SPR imaging |  |  |  | Kd | 1.71 nM
CCCCC[C@H](O)/C=C/[C@H]1[C@H](O)CC(=O)[C@@H]1C/C=C\CCCC(=O)O | PTGER1 (Homo sapiens, UniProt P34995, F334L) | IP1 accumulation, agonist | AD293 |  |  | EC50 | 0.0586 µM
O=C(O)C[C@H](O)C[C@H](O)/C=C/c1c(C2CC2)nc2ccccc2c1-c1ccc(F)cc1 | COS-7 |  |  | 10 µM, 24 h, 0.1% DMSO, unit not given | baseline: vehicle control | confluence | 0.88 ± 0.04
Oc1ccc(OCc2ccccc2)cc1 | Nuclear receptor subfamily 2 group C member 2 ligand-binding domain | SPR imaging |  |  |  | Kd | 20.1 nM

SMILES | target or system | test | system | conditions | how to read | measurement | result
COc1cc2c(c(O)c1OC)C(=O)c1c(cc(C)c(O[C@@H]3O[C@H](CO)[C@@H](O)[C@H](O)[C@H]3O)c1OC)C2=O | HepaRG co-cultured with HK-2 | MTT |  | 33.33 µM, 48 h | baseline: untreated control | cell viability | 73.4 ± 15.4%
COc1ccc2cc(CCC(C)=O)ccc2c1 | Nuclear receptor subfamily 2 group C member 2 ligand-binding domain | SPR imaging |  |  |  | Kd | 0.466 nM
Nc1ncnc2c1ncn2[C@@H]1O[C@H](CSCC[C@H](N)C(=O)O)[C@@H](O)[C@H]1O | PNMT (Homo sapiens, UniProt P11086) | inhibitor, coupled enzyme |  |  |  | Ki | 15.4 ± 5.2 µM
CC1(C)Cc2c(sc(NC(=O)c3ccn[nH]3)c2C(N)=O)C(C)(C)O1 | CFTR (Homo sapiens, UniProt P13569, D924R/R347D) | channel current, activator, inside-out patch clamp | CHO cells, transfected |  |  | EC50 | 2.06 ± 0.2 µM
COc1cc2c(c(O)c1OC)C(=O)c1c(cc(C)c(O)c1OC)C2=O | HepaRG co-cultured with HK-2 | MTT |  | 133.33 µM, 48 h | baseline: untreated control | cell viability | 52.1 ± 2.79%
CC[C@@H]1[C@H](F)C(=O)N[C@@H]1COc1nccc2cc(C(N)=O)c(OC)cc12 | RPS6KA3 (Homo sapiens, UniProt P51812) | ATP-site binding, ActivX kinase profiling | THP-1 cell lysate | RSK2 domain 2 Lys2 probe peptide |  | IC50 | > 5 µM
Cc1ncc([N+](=O)[O-])n1CCO | Nuclear receptor subfamily 2 group C member 2 ligand-binding domain | SPR imaging |  |  |  | Kd | 2.11 nM
CN(C)C1CCN(c2cc(C=O)ccc2[N+](=O)[O-])CC1 | YWHAG/RELA phospho-Ser45 p65 peptide | ternary complex formation, stabilizer, fluorescence anisotropy |  |  |  | EC50 | > 1000 µM
CC(C)n1c(/C=C/C(O)CC(O)CC(=O)O)c(-c2ccc(F)cc2)c2ccccc21 (stereo not shown) | COS-7 |  |  | 6 µM, 24 h, 0.1% DMSO, unit not given | baseline: vehicle control | necrotic cells | 0.69 ± 0.11
CN1CCN(c2ccc(Nc3ncc4cc(C#N)c(=O)n(C5CCCC5)c4n3)cc2)CC1 | PHKG1 (Homo sapiens, UniProt Q16816) |  |  |  |  | IC50 | 1.8 µM
COC1CCCN(c2cc(C=O)ccc2[N+](=O)[O-])C1 (stereo not shown) | YWHAG/RELA phospho-Ser45 p65 peptide | ternary complex formation, stabilizer, fluorescence anisotropy |  |  |  | EC50 | > 1000 µM
CNC(=O)[C@@]12C[C@@H]1[C@@H](n1cnc3c(NC)nc(C#Cc4cnccn4)nc31)[C@H](O)[C@@H]2O | ADRA2A | radioligand binding (PDSP) |  |  |  | Ki | 1 to 10 µM
COc1ccc(-c2nn(-c3ccccc3)cc2C2C(C(C)=O)=C(C)n3c(=O)c4ccccc4c(=O)n32)cc1 (stereo not shown) | MAL12 (Saccharomyces cerevisiae S288c, UniProt P53341) | Lineweaver-Burk secondary plot |  |  |  | Ki | 34.8 µM
OCC(CO)N[C@H]1C[C@](O)(CO)[C@@H](O)[C@H](O)[C@H]1O | Nuclear receptor subfamily 2 group C member 2 ligand-binding domain | SPR imaging |  |  |  | Kd | 0.0824 nM
O=Cc1ccc([N+](=O)[O-])c(N2CCC(CCO)CC2)c1 | YWHAG/RELA phospho-Ser45 p65 peptide | ternary complex formation, stabilizer, fluorescence anisotropy |  |  |  | EC50 | > 1000 µM
O=C(O)c1cc(/N=N/c2ccc(S(=O)(=O)Nc3ccccn3)cc2)ccc1O | Nuclear receptor subfamily 2 group C member 2 ligand-binding domain | SPR imaging |  |  |  | Kd | 0.0152 nM
O=c1n(CCCN2CCN(c3cccc(Cl)c3)CC2)nc2ccccn12 | HRH4 (Homo sapiens, UniProt Q9H3N8) |  |  |  |  | Ki | > 10 µM
